Experimental data collected from several papers.
Lines come from different studies, so protocols differ. ± gives the spread as reported.
Target: Sodium-dependent dopamine transporter (Slc6a3, Rattus norvegicus, UniProt P23977)
UniProt P23977, sequence (whole entry, looked up): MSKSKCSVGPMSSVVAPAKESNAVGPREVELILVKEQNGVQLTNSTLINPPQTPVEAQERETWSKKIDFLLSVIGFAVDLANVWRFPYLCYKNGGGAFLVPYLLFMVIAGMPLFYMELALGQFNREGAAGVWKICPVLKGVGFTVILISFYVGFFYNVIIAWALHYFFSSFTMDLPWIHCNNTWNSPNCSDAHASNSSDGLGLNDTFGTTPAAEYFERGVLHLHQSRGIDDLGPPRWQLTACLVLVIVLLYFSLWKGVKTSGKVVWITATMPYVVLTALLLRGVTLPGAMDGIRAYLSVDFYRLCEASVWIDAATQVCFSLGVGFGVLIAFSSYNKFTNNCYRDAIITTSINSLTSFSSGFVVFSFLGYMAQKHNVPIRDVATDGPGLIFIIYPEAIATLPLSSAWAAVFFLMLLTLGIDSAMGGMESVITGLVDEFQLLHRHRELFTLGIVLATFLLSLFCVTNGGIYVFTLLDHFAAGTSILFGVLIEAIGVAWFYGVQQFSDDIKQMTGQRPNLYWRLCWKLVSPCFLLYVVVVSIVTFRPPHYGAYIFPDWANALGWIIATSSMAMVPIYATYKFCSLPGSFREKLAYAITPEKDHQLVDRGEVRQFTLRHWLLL

SMILES | test | system | setting | endpoint | result
CN1CCN(CCc2ccc(Cl)c(Cl)c2)CC1 | ligand displacement, radioligand | – | – | Ki | 8020 nM
Cc1ccc([C@H]2OC(N)=N[C@H]2C)cc1 (relative stereo) | substrate release, releaser | rat brain synaptosomes | together with: [3H]MPP+ 9 nM | EC50 | 10.9 ± 0.7 nM
CCC[C@@H](C(=O)c1ccccc1)N1CCCC1 | transporter uptake, inhibitor, radiometric | – | – | IC50 | 7 nM
C[C@@H]1N=C(N)O[C@@H]1c1ccccc1 (racemic) | substrate release, releaser, [3H]MPP+ release | rat brain synaptosomes | together with: [3H]MPP+ 9 nM | EC50 | 1.7 ± 0.2 nM
CC(C)N(CCc1c[nH]c2ccccc12)C(C)C | inhibitor | – | – | IC50 | 4790 ± 416 nM
CNC(C)C(=O)c1ccccc1 (stereo not drawn) | substrate release, releasing agent | rat striatal synaptosomes | together with: [3H]MPP+ | EC50 | 25 nM
CCC[C@H](C(=O)c1ccc2c(c1)OCO2)N1CCCC1 | transporter uptake, inhibitor, radiometric | – | – | IC50 | 383 nM
Cc1ccccc1N=C(N)Nc1ccccc1C | ligand displacement, radioligand | – | – | Ki | 93500 nM
CC(C)N(C)CCc1c[nH]c2ccccc12 | inhibitor | – | – | IC50 | > 10000 nM
CNC(C)Cc1ccc2c(c1)OCO2 (single isomer, unassigned; (+)) | substrate release, releaser | rat brain synaptosomes | together with: [3H]MPP+ 9 nM | EC50 | 143 ± 16 nM
CCNC(C)Cc1ccccc1 (stereo not drawn) | dopamine release, releaser | rat brain synaptosomes | – | EC50 | 88.5 ± 9.6 nM
CNCCc1c[nH]c2ccc(OC)cc12 | – | – | – | EC50 | > 10000 nM
CON(C)C(C)C(=O)c1ccc(C)cc1 (stereo not drawn) | dopamine transport | – | – | IC50 | 6090 nM
COc1ccc2[nH]cc(CCNC(C)C)c2c1 | inhibitor | – | – | IC50 | > 10000 nM
Cc1ccc(C2OCCNC2C)cc1 (stereo not drawn) | inhibitor | – | – | IC50 | 1930 nM
C[C@@H]1N=C(N)O[C@H]1c1ccc2c(c1)OCO2 (racemic) | substrate release, releaser | rat brain synaptosomes | together with: [3H]MPP+ 9 nM | EC50 | 36.2 ± 3.6 nM
CCCN(CCC)CCc1c[nH]c2ccccc12 | inhibitor | – | – | IC50 | 2220 ± 168 nM
CNC(C)Cc1ccc2occc2c1 (stereo not drawn) | transporter-mediated release, substrate | rat striatal synaptosomes | 30 min, together with: [3H]MPP+ | EC50 | 41 ± 3 nM
CNC(C)C(=O)c1cccc(Cl)c1 (stereo not drawn) | substrate release, releaser | rat striatal synaptosomes | together with: [3H]MPP+ | EC50 | 26 nM
CNC(C)C(=O)c1ccccc1 (stereo not drawn) | dopamine release, releaser | rat brain synaptosomes | – | EC50 | 49.9 ± 3.1 nM
O=C(OCCN1CCOCC1)C1(c2ccccc2)CCCCC1 | ligand displacement, radioligand | – | – | Ki | 19600 nM

For quick reference, copied from above:
SMILES | test | system | setting | endpoint | result
Cc1ccc([C@H]2OC(N)=N[C@H]2C)cc1 (relative stereo) | substrate release, releaser | rat brain synaptosomes | together with: [3H]MPP+ 9 nM | EC50 | 10.9 ± 0.7 nM
CCNC(C)Cc1ccccc1 (stereo not drawn) | dopamine release, releaser | rat brain synaptosomes | – | EC50 | 88.5 ± 9.6 nM
